Published values collected from several papers.
Every numbered part comes from another study and shows a few of its results, in no order. Changes are numbered by the printed parent chain.

Sample 1 — technique: EMSA with sequencing; form: double-stranded DNA, one strand shown; sample: in vitro; tested at: 10 and 20 nM; baseline: negative control set to 0; reading: higher = stronger binding
Target: Hepatocyte nuclear factor 3-alpha (Foxa1, Mus musculus, UniProt P35582, residues 1-468, full length assumed)
Notes: whole designed probe, mean of two concentrations, ends assumed
All sequences stand within: GTGAGCGGTGCCCATTGATGGGGAAC … TTTCACTGGGATCGTGGGGAC
Residues (chain): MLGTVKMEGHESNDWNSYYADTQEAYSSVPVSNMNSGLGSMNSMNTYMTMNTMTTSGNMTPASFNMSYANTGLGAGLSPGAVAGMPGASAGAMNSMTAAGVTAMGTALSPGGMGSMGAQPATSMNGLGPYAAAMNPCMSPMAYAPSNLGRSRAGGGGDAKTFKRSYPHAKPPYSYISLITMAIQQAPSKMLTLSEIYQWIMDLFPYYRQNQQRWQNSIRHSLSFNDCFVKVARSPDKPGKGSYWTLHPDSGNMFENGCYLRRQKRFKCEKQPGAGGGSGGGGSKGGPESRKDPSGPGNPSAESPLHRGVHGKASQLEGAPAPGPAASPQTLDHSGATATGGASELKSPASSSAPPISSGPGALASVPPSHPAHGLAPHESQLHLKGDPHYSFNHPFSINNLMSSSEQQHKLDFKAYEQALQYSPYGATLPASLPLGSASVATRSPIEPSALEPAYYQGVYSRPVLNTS
Oligonucleotide | normalised bound fraction
CAAAAATTGTTAAATCATTAAAAAATTGTTTGAAAATATACACTTCTTGTTGTAGACCCCCACTGTACACACGACTATAAACATTGTTCCCTATGTAAACAAAAAAAGGAAACATATAATAAGAGATTTGAAAAGTCTGGACATTTCCTTCCCAACAGATATTAAAGGCAACGTCTTTAATCTAAGACATTAT | 0.546 ratio
CAAATCAAAAGACAAAAGAAACTAATCATTCCTTTTAAAGATAATTGCTGTTTTTATCAGATCAATAAAAAATGTGTTAACAACATTAAAAAGTAAACAAGCAAACACAAATGTCAAAAAAGCTAACCTAATGATGACATGTCACTTTCTCCAGTCCCAGCCCCACATCATATAGGAACTTTCCAACTGCCTG | 0.426 ratio
AGGTGAATTGGCTGCTTCCATCCTGGCTTGGAACTTCAGACATAGAAGCCTTGGGACTTTCTCAGGACTTTCTCCAGATCTGTCACATGCTCAGCAAACAAGCATCTCTGTGGATCACGTGACCCTGACTCATGCTGTTGGTGAAACTGTGTGTTGGTCTAGGTACCTAGCCCATGCTAGGTGCTCATCGAAT | 0.0961 ratio
ATCTTCCCCCTCTTCCTTGCCCCACCAGCTCACCTACGGGGGTTATTTGCAGATAGGAAAATAAATAAAGCCGGCATTCGTTAACGCAGTTCTGGCGCAAACTGCTGTTTGCTCTGCATGAATCATGGTCCTTACGCGACGCCAGGCTCCGGGAGAGCAAAGCACCGTGTCAGGCGCATGATCCGGGCTCGCC | 0.351 ratio
GGTGTTTAAGAAAACAAGCCAGAATTAGATAAAGTAAAACTTACTTTATTAAATAGGATGGACACCACTTCTCCCAAGAGAACTGTCTCCAAAAGTAATCTAGAAAGATCAATCTGGTAAACTCACATCATACAGGTTCCCGTGTAAGGTATCGGGTTCAGGCAGGTGGAAGCCAAATGATCGTAATTAAAGT | 0.0148 ratio

Sample 2 — technique: RNAcompete; form: RNA; sample: in vitro; tested at: 20 nM; notes: 7-mer, probes averaged, single round; baseline: mean of 7-mers; reading: higher = stronger binding
Target: PABPC1L2, full length, GST fusion (mouse, UniProt A0ABA7IW68)
Oligonucleotide | 7-mer Z-score
UCCGCAC | -0.373
AACUACC | -0.231
CGACACU | -0.104
UGUGUUG | -0.369
GGAUAAA | 1.78
CACGAGG | 0.119
UAGUCCA | -0.267
GAGGAAC | 0.16

Sample 3 — technique: protein-binding microarray; form: double-stranded DNA, one strand shown; sample: in vitro; tested at: 250 nM; notes: 60-bp whole probe; added: salmon DNA 0.4 mg/ml; baseline: random background probes; reading: higher = stronger binding
Target: Interferon regulatory factor 7, full length, phosphomimetic (IRF7, Homo sapiens, UniProt Q92985, residues 1-503, S101K/S471D/S472D/S475D/S476D/S477D/S483D/S484D/S487D)
Chain of UniProt Q92985 (whole entry, unmodified, looked up): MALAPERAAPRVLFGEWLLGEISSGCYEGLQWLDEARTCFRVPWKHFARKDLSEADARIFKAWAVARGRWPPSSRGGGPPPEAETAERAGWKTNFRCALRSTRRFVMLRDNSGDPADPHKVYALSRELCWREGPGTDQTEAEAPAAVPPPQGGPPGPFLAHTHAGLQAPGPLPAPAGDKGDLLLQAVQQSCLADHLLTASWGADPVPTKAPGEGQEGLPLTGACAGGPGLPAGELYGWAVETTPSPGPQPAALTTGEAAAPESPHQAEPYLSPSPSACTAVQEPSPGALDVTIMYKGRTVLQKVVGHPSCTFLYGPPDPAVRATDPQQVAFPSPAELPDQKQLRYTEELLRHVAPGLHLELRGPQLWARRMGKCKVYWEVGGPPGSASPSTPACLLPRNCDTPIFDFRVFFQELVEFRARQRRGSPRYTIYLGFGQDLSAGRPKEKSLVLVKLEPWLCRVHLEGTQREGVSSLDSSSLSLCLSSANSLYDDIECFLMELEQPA
All sequences stand within: GCCTAGCAC … GTGCTAGGTCTTGATTCGCTTGACGCTGCTG
Oligonucleotide | log fluorescence
GACGGTCTCGGACTGGGAAC | -0.0407 z-score
TTAGGACCGCTTTTCCTTTA | 4.05 z-score
GTGCTTCACAGAGGCGGCTG | 0.13 z-score
TTAGGTCTCCTTTTCCTCTA | 2.05 z-score
GACGATTTCACACTGGAGAC | 0.304 z-score
GACGGACTCGGTTTCGGGAC | 6.82 z-score
GCCTTTATATACCTGAATAT | 1.17 z-score
TTAGGTTTCCTTATCCTTTA | 2.97 z-score

Other studies, line by line
Starting sequence: viral docking peptide; PGASRRLFGSSAD; partner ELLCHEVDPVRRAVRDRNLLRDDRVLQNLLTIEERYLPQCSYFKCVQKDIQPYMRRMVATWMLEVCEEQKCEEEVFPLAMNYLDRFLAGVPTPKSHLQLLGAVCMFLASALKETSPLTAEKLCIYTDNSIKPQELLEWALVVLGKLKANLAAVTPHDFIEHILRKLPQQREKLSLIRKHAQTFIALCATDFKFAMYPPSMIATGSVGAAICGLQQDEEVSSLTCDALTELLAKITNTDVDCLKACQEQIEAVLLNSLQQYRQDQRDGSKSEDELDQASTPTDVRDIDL
Variant | target | assay | system | conditions | how to read | quantity | value
G2A | CCND2, cyclin fold, Cln2 fusion (human) | yeast growth competition, sequencing | yeast | weak parent motif | baseline: not given, higher = stronger binding | normalised enrichment score | 0.339

Some of these lines once more (other studies, line by line):
Variant | target | assay | system | conditions | how to read | quantity | value
G2A | CCND2, cyclin fold, Cln2 fusion (human) | yeast growth competition, sequencing | yeast | weak parent motif | baseline: not given, higher = stronger binding | normalised enrichment score | 0.339
